Experimental data of several laboratories.
Compare with care: the assays were run in different laboratories. Numbers after ± are the reported error.
DRD3: D(3) dopamine receptor (DRD3, Homo sapiens, UniProt P35462)
Sequence of UniProt P35462 (whole entry, looked up): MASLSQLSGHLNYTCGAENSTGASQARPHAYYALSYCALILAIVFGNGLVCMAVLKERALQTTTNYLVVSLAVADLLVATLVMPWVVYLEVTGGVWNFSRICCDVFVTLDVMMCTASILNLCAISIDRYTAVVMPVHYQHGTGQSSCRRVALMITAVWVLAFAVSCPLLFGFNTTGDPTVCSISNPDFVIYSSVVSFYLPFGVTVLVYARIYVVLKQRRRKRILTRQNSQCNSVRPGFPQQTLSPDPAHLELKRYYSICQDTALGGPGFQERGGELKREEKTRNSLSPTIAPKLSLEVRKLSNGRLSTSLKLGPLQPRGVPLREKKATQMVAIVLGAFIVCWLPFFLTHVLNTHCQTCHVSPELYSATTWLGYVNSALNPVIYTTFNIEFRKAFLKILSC
CDK2: Cyclin-dependent kinase 2 (CDK2, Homo sapiens, UniProt P24941)
SLC10A1: Hepatic sodium/bile acid cotransporter (SLC10A1, Homo sapiens, UniProt Q14973)
Sequence of UniProt Q14973 (whole entry, looked up): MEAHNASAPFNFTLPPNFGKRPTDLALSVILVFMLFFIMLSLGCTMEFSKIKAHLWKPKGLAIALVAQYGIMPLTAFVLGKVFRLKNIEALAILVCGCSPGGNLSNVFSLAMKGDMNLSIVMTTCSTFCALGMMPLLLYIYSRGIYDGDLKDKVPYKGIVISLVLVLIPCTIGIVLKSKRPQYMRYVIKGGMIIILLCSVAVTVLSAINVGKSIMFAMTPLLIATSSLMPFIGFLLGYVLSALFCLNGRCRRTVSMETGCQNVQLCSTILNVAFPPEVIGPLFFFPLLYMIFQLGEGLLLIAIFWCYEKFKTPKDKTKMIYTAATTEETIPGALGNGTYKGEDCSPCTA
CDK2 with cyclin A: Cyclin-dependent kinase 2, with cyclin A (CDK2, Homo sapiens, UniProt P24941)
ESR1: Estrogen receptor (ESR1, Homo sapiens, UniProt P03372)
Sequence of UniProt P03372 (whole entry, looked up): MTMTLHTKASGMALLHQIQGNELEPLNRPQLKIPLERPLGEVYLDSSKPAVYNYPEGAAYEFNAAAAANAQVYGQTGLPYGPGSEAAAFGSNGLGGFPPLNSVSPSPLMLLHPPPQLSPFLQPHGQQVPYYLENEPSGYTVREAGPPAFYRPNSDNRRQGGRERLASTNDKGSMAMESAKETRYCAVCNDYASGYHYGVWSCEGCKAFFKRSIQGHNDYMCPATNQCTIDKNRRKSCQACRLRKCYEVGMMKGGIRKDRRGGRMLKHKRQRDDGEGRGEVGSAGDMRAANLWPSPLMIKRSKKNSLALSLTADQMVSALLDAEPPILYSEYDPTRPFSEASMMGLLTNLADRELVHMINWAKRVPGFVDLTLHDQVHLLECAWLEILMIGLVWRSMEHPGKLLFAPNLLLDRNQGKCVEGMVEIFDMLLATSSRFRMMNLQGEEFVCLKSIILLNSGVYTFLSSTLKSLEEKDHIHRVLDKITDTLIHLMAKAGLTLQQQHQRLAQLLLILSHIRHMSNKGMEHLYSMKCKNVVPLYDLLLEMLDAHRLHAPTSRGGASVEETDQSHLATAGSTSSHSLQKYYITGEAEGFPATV

| target | assay | system | conditions | measurement | value | SMILES |
| --- | --- | --- | --- | --- | --- | --- |
| DRD3 | β-arrestin recruitment, antagonist, PathHunter | – | together with: dopamine EC80 | IC50 | > 100 µM | Cc1[nH]c(C)c(S(=O)(=O)Nc2c(Cl)ccc(Cl)c2Cl)c1C(=O)N1CCC(F)(F)C1 |
| CDK2 | binding | – | – | Kd | > 100 µM | Cc1c(NS(=O)(=O)c2cccc3nonc23)c(=O)n(-c2ccccc2)n1C |
| SLC10A1 | taurocholate uptake, inhibitor | NTCP-expressing HEK293 | together with: 10 µM taurocholate | Ki | 361 ± 178 µM | CC(C(=O)O)c1cccc(C(=O)c2ccccc2)c1 (centres unmarked) |
| CDK2 with cyclin A | – | – | – | Kd | > 100 µM | Cc1nonc1OCCNc1cc(N2CCOCC2)ccc1[N+](=O)[O-] |
| ESR1 | array formation, agonist | ERα-GFP PRL-HeLa | 1 h | EC50 | 2.08 µM | COc1cc(O)c(CC=C(C)C)c2c1C(=O)CC(c1ccc(O)cc1)O2 (centres unmarked) |
| SLC10A1 | taurocholate uptake, inhibitor | NTCP-expressing HEK293 | together with: 10 µM taurocholate | Ki | 92.9 ± 14 µM | COc1ccccc1Oc1c(NS(=O)(=O)c2ccc(C(C)(C)C)cc2)nc(-c2ncccn2)nc1OCCO |
| ESR1 | array formation, agonist | ERα-GFP PRL-HeLa | 1 h | EC50 | 3.37 µM | COc1c(O[C@@H]2O[C@H](CO)[C@@H](O)[C@H](O)[C@H]2O)cc2occ(-c3ccc(O)cc3)c(=O)c2c1O |
| DRD3 | Go activation, antagonist, BRET | – | together with: dopamine | IC50 | > 100 µM | CCCN(CCC)C(=O)c1c(C)[nH]c(C)c1S(=O)(=O)Nc1ccc(C(F)(F)F)c(Cl)c1 |
| CDK2 | binding | – | – | Kd | > 100 µM | COc1cc(OC)c(NC(=O)CSc2nnc(-c3ccncc3)n2-c2ccccc2)cc1Cl |
| DRD3 | β-arrestin recruitment, antagonist, PathHunter | – | together with: dopamine EC80 | IC50 | > 100 µM | Cc1ccc(NS(=O)(=O)c2c(C(=O)N3CCC(F)(F)C3)c(C)nn2C)cc1Cl |
| ESR1 | array formation, agonist | ERα-GFP PRL-HeLa | 1 h | EC50 | 6.33 µM | O=C(/C=C/c1ccc(O)cc1)c1ccccc1 |
| CDK2 | average of ITC, Octet and Thermofluor | – | untagged protein | Kd | 1.04 µM | O=C(Cc1ccc(OCCN2CCCC2)cc1)Nc1cc(C2CC2)[nH]n1 |
| DRD3 | Go activation, antagonist, BRET | – | together with: dopamine | IC50 | > 100 µM | Cc1[nH]c(C)c(S(=O)(=O)Nc2c(Cl)cc(C(F)(F)F)cc2Cl)c1C(=O)N1CCC(F)(F)C1 |
| SLC10A1 | taurocholate uptake, inhibitor | NTCP-expressing HEK293 | together with: 10 µM taurocholate | Ki | 2010 ± 5840 µM | CCOc1ccc2ccccc2c1C(=O)N[C@@H]1C(=O)N2[C@@H]1SC(C)(C)[C@@H]2C(=O)O |
| DRD3 | β-arrestin recruitment, antagonist, PathHunter | – | together with: dopamine EC80 | IC50 | > 100 µM | CCN(CC)S(=O)(=O)c1c(C)[nH]c(C)c1C(=O)Nc1ccc(C(F)(F)F)c(Cl)c1 |
| CDK2 with cyclin A | bio-layer interferometry | – | together with: cyclin A | Kd | > 100 µM | O=C(Nc1cc(C2CCCCC2)[nH]n1)c1ccc(Br)cc1 |
| SLC10A1 | taurocholate uptake, inhibitor | NTCP-expressing HEK293 | together with: 10 µM taurocholate | Ki | 77.1 ± 38 µM | CCC(C)n1ncn(-c2ccc(N3CCN(c4ccc(OCC5COC(Cn6cncn6)(c6ccc(Cl)cc6Cl)O5)cc4)CC3)cc2)c1=O (centres unmarked) |
| CDK2 | average of ITC, Octet and Thermofluor | – | untagged protein | Kd | 0.288 µM | COc1cccc(OC)c1CNC(=O)c1ccc2c(c1)C(=NNc1ccc(S(N)(=O)=O)cc1)C(=O)N2 |
| DRD3 | Go activation, antagonist, BRET | – | together with: dopamine | IC50 | > 100 µM | Cc1ccc(NS(=O)(=O)c2c(C(=O)N3CCC(F)(F)C3)c(=O)[nH]n2C)cc1Cl |
| ESR1 | array formation, agonist | ERα-GFP PRL-HeLa | 1 h | EC50 | 8.75 µM | CC(C)=CCc1cc2c(cc1O)O[C@H](c1ccc(O)cc1)CC2=O |

Excerpt of the above:
| target | assay | system | conditions | measurement | value | SMILES |
| --- | --- | --- | --- | --- | --- | --- |
| SLC10A1 | taurocholate uptake, inhibitor | NTCP-expressing HEK293 | together with: 10 µM taurocholate | Ki | 361 ± 178 µM | CC(C(=O)O)c1cccc(C(=O)c2ccccc2)c1 (centres unmarked) |
| CDK2 with cyclin A | – | – | – | Kd | > 100 µM | Cc1nonc1OCCNc1cc(N2CCOCC2)ccc1[N+](=O)[O-] |
